Assay results gathered from unrelated publications.
Each numbered part is a random draw from the data of one study; scales do not carry over between parts. Positions count from the first letter of the parent shown.

Block 1
Target: Prothrombin, mature alpha-thrombin (F2, Homo sapiens, UniProt P00734)
Technique: aptamer microarray, sandwich
Form: DNA with 2'F-ANA
Matrix: in vitro
Tested at: 200 nM
Notes: whole 15-mer aptamer, many near background
Added: Cy3 exosite-II aptamer, 400 nM
Direction: higher = stronger binding
Strand: GGTTGGTGTGGTTGG
| Modification | mean fluorescence intensity [a.u.] |
| --- | --- |
| 2'F-ANA at 2 6 7 8 14 | 153 |
| 2'F-ANA at 1 5 8 13 | 52.2 |
| 2'F-ANA at 1 3 4 5 7 8 9 10 12 13 | 49.1 |
| 2'F-ANA at 2 3 5 6 10 11 12 13 15 | 55.2 |
| 2'F-ANA at 1 2 3 6 7 8 9 12 13 | 327 |
| 2'F-ANA at 1 4 5 7 9 12 13 14 | 55.4 |
| 2'F-ANA at 2 3 4 7 8 9 10 13 15 | 257 |
| 2'F-ANA at 1 2 7 8 10 11 12 13 14 | 45.9 |

Block 2
Target: CCND2, cyclin fold, Cln2 fusion (human)
Technique: yeast growth competition, sequencing
Matrix: yeast
Notes: weak parent motif
Relative to: not given
Direction: higher = stronger binding
Starting sequence: viral docking peptide; TSVRRALFTGGSD; partner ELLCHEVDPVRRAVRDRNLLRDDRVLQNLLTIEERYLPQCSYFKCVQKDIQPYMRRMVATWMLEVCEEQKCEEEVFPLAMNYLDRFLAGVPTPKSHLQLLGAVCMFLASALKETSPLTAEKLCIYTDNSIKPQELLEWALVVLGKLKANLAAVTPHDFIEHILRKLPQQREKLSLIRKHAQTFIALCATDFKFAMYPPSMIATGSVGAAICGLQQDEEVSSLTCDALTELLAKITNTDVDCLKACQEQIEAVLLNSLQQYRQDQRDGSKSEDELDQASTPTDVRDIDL
| Substitution | normalised enrichment score |
| --- | --- |
| L7K | 0.0668 |
| G10S | 0.0228 |
| A6G | 0.202 |
| G11I | 0.0302 |

Block 3
Target: tungstate, free oxyanion
Technique: microfluidic competitive inhibition
Matrix: in vitro, cell-free expressed
Tested at: not given
Notes: derived from inhibition constants, unchanged parent 2230 nM
Direction: lower = stronger binding
Starting sequence: PafA, mature enzyme, eGFP fusion (Elizabethkingia meningoseptica, UniProt Q9KJX5); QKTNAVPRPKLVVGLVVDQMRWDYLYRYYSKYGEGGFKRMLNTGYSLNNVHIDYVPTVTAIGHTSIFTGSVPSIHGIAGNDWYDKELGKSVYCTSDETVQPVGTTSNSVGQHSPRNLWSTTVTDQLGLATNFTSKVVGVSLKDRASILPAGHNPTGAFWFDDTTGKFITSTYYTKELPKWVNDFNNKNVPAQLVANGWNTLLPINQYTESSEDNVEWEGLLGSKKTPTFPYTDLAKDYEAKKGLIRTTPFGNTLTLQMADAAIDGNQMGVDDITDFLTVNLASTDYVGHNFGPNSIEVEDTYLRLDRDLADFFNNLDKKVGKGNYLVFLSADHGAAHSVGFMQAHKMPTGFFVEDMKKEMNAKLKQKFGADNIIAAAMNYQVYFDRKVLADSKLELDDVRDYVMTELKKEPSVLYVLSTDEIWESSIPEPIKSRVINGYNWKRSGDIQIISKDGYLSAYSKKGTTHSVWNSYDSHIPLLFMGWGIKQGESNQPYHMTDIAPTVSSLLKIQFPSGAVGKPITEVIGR
| Substitution | oxyanion analog dissociation constant |
| --- | --- |
| K85G | 2.43 µM |
| T253G | 1.96 µM |
| S474V | 1.16 µM |
| G197V | 2.53 µM |

Mixed results
| Substance | partner | assay | test system | setting | endpoint | value |
| --- | --- | --- | --- | --- | --- | --- |
| DDX46 (Homo sapiens, UniProt Q7L014) | PNMA8A (Homo sapiens, UniProt Q86V59) | cross-linking MS | cells | added: BSPNO | cross-linked residues | K907 to K258 |

A few entries again (block 1):
| Modification | mean fluorescence intensity [a.u.] |
| --- | --- |
| 2'F-ANA at 1 4 5 7 9 12 13 14 | 55.4 |
| 2'F-ANA at 2 3 4 7 8 9 10 13 15 | 257 |
